Results pooled from the literature.
Every numbered part comes from another study and shows a few of its results, in no order. Substitutions count along the parent as printed.

Block 1 — method: RNA Bind-n-Seq; molecule type: RNA; medium: in vitro; concentration: not given; relative to: input RNA pool; reading: higher = stronger binding
Target: RING finger protein unkempt homolog, zinc fingers 1-6, GST-SBP tag (UNK, Homo sapiens, UniProt Q9C0B0, residues 30-357)
Setting: RNA with constant flanks, human and mouse sites, ends assumed
Target sequence (chain): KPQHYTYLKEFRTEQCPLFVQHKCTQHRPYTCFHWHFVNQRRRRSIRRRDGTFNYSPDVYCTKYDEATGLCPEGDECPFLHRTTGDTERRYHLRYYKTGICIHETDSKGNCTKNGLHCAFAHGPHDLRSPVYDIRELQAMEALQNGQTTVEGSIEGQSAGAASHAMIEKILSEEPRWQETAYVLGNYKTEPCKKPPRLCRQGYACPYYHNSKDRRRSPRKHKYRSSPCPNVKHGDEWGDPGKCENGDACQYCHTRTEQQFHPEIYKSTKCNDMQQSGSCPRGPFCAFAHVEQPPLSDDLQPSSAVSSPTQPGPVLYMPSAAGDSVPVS
For `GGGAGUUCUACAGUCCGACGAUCCGAUGCCUAAGAUGGGGAGGAGGUUAUGAAGGACAGAAUCUGGCAAAGAUCCUCAAGGAUUUAGAGAUGAGUAAAGUGGUACAUAUGGAUCGAUGGUCUGUGGAGGUGAUACCUCAACAACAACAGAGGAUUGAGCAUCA`, the bound/input enrichment was 0.336 ratio.
`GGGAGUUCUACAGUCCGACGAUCGCUAUGAAAAGGGGAGAGCCUGCCAUCUACAGGCCAUUAGAUCCAAAGCCAUUCCCAAAUUAUAGAGCUAAUUACAACUUUCGGGGCAUGUACAAUCAGAGGUAUCAUUGCCCAGUGCCUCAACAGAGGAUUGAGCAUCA` gave a bound/input enrichment of 1.23 ratio.
`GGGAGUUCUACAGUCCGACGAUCGUUUUCCAUCUUUAUCAAUGCAUUCGUGUUGGUCUUGAUGUAUACUACCUGUUCCUAGUGUUAUUUUUACACGUCAUCUCACAGUAAUAAUAUCAGCAAUUCUUGCUGCAUUGAACAUAUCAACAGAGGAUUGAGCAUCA` has a bound/input enrichment of 0.265 ratio.
`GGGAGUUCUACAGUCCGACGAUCUUUCCUAAAGCCAUCAUGCCUUGAUAAAUAUAUAUGAUCAUUGAAAUACUUUUUAACAAAAACAGAUUCUAUAUUAUAUAUAUAUAUAUAUAUUAAAAAAUAUAUAGAGAUGCUUUCACACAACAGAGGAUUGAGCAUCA` gave a bound/input enrichment of 4.57 ratio.
`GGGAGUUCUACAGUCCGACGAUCCAUCAAAAUGUUUCAUAUCAAGAUGAUUCUAAGCUAUCCCAGAGGAAGUUUACCAUUCUUAAUUUUAAUGAUUUGGUAGCAUCUGCUAUUCCUAUGACACCUGAGGAUCCUUCAUUUUGGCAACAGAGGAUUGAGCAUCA` has a bound/input enrichment of 0.146 ratio.
`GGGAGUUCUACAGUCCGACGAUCAACAACUUUCUUCAAACACUAAAUCAAGCUUGGAAUGAUCAUCAAACAGCCAUGGUGAUGAUUAGAGACAUAUUAAUGUAUAUGGACCGUGUAUAUGUACAACAGAAUAAUGUAGAAAAUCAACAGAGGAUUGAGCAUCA` gave a bound/input enrichment of 0.345 ratio.
With `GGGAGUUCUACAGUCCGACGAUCCUCCCUGACAACACCUUUCGAGACCUGGGCAACCUCACGCAUCUCUUUCUGCAUGGCAACCGUAUCCCCAGUGUGCCUGAGCACGCUUUCCGUGGCCUGCACAGUCUUGACCGCCUCCUCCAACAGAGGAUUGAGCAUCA` the bound/input enrichment was 0.193 ratio.
The bound/input enrichment of `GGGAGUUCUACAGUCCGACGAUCAAGGGCAACUAUUCGGAGCGCGUGGGCGCCGGCGCCCCGGUCUAUCUGGCCGCGGUGCUCGAGUACUUGACUGCCGAGAUCCUGGAGCUUGCCGGCAACGCGGCGCGCGACAACAAGAAGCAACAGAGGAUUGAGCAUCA` is reported as 0.151 ratio.
For `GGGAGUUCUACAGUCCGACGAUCCUGGAUUUUUUUUUCUUUAUAUUUUGGGUACUGGAGCUUUUAAAAAUGUUUGGUUUCAGGUAUUUUUAUUCAUGUGAAGUGUAUAUGAUUCUCUUGAGAUAAGGUUUUAAGCUAAAAUGUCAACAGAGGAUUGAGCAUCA`, the bound/input enrichment was 0.913 ratio.
The bound/input enrichment of `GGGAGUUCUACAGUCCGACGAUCUCUUUUACCUCAUACUCACCUUAUGUAACAGAACUUAUAAUGGAAUCCAAUGUAGAGCUCAUAGCAAAAAAUGACUUGCGCUUUAUAGAUGCUGUCUAUAAGCUUCUUCGUGAUCAAUUUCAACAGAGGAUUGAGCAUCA` is reported as 0.308 ratio.
For `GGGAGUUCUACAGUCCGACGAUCCCCUUCUGCCGAAUCUGCCACGAGGGAGCAAAUGGGGAGAACUUGCUGUCCCCAUGUGGCUGCACGGGCACACUGGGAGCUGUGCACAAGAGCUGCCUGGAGAAAUGGCUGUCUUCCUCCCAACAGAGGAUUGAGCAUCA`, the bound/input enrichment was 0.0601 ratio.

Block 2 — target: CCNB3, cyclin fold, Cln2 fusion (human); method: yeast growth competition, sequencing; medium: yeast; setting: weak parent motif; relative to: not given; reading: higher = stronger binding
Starting sequence: WEE1 docking peptide (human); HKTFRKLRLFDTP
`HKTFRKLRLFDFP [T12F]`: “normalised enrichment score” 0.0778.
`HKTARKLRLFDTP [F4A]`: “normalised enrichment score” 0.325.
Under “normalised enrichment score”, `HKTFRKLRLFDYP [T12Y]` is recorded as -0.059.
For `HKTFRKLRLFDTD [P13D]`, “normalised enrichment score” read 0.4.
`HKTFRKLRLFATP [D11A]`: “normalised enrichment score” -0.106.
For `HKTFRKLRLFDWP [T12W]`, “normalised enrichment score” read 0.0465.
`HKTFRKLRLKDTP [F10K]` — result for “normalised enrichment score”: -0.337.
Under “normalised enrichment score”, `HKTFRKLRLHDTP [F10H]` is recorded as -0.282.
`HKTCRKLRLFDTP [F4C]`: “normalised enrichment score” 0.144.
Under “normalised enrichment score”, `HKTFRKLRLFDLP [T12L]` is recorded as 0.0622.
For `HKTFRKLRLFITP [D11I]`, “normalised enrichment score” read -0.444.
Under “normalised enrichment score”, `HKTFEKLRLFDTP [R5E]` is recorded as 0.752.
Under “normalised enrichment score”, `HKTFRKLRLFGTP [D11G]` is recorded as -0.471.
`HKTFRKLRKFDTP [L9K]` — result for “normalised enrichment score”: 0.439.

Block 3 — method: RNA Bind-n-Seq; molecule type: RNA; medium: in vitro; concentration: 1 µM; setting: whole 134-nt RNA, ends assumed; together with: 150 mM KCl; relative to: input library; reading: higher = stronger binding
Target: Ras GTPase-activating protein-binding protein 1, C-terminal RGG region (G3BP1, Homo sapiens, UniProt Q13283)
Chain of UniProt Q13283 (whole entry, looked up): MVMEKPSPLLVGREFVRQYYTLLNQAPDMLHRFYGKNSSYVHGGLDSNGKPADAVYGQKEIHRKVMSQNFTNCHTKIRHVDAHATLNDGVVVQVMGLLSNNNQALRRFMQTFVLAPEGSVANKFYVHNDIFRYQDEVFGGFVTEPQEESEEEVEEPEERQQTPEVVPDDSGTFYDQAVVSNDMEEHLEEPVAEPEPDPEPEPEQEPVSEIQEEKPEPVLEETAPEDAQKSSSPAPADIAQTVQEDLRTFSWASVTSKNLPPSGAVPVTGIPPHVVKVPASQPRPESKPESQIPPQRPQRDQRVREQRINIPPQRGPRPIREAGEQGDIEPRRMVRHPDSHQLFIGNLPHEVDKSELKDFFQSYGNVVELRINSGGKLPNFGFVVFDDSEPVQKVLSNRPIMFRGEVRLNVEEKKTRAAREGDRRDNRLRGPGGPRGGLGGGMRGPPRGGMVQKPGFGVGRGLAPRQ
With `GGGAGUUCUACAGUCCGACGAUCCCUCAAGUCCUGUGCUACACAUCGUAUGUACCGAAUCGGAAAAAGGUGGAGGAAAGUAUUAUGUUACGCCGUUCGGAUCUGCACUUCCAGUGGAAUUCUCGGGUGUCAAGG` the log2 enrichment was -0.656.
The log2 enrichment of `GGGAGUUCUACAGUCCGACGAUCAGUCCUGUGCUACACAUCGUAUGUACCGAAUCGGGAAAAAGGAAAAAGGGGAAAAAGGAAAGUAUUAUGUUACGCCGUUCGGAUCUGCACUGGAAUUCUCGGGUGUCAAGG` is reported as -1.66.
For `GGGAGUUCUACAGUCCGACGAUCCAAGUCCUGUGCUACACAUCGUAUGUACCGAAUCGGGGUUUGGUUUGGGUUUGGGAAAGUAUUAUGUUACGCCGUUCGGAUCUGCACUUCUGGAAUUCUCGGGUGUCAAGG`, the log2 enrichment was -0.855.
With `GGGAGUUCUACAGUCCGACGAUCCUCAAGUCCUGUGCUACACAUCGUAUGUACCGAAUCGGGAAGGGGAAGGAAGGGAAAGUAUUAUGUUACGCCGUUCGGAUCUGCACUUCCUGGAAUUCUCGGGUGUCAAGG` the log2 enrichment was -0.991.
`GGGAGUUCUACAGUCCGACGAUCAAGACAUUUGUUGUAUUUAUGGUUGUAACUGUACAUGCUUAUCAGGAUGAGACUGAAAGAAGGUAGGGCAAAAAUGGUUGAAUCUAUUUUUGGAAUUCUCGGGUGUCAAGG` gave a log2 enrichment of -1.09.
The log2 enrichment of `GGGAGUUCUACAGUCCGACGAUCUCCUCAAGUCCUGUGCUACACAUCGUAUGUACCGAAUCGGGUGGUGGGUGGAAAGUAUUAUGUUACGCCGUUCGGAUCUGCACUUCCAGCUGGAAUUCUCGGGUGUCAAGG` is reported as -0.154.
The log2 enrichment of `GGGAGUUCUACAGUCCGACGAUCAGUCCUGUGCUACACAUCGUAUGUACCGAAUCGGGGUGGGGUUUUUGGGGUUUGGGGAAAGUAUUAUGUUACGCCGUUCGGAUCUGCACUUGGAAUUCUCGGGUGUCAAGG` is reported as 0.803.
`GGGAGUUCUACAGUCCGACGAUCACCAUGCAGGUGGGCAUCUUUGGGAAGUGGGGCAAGGGGGGGAUAGGGAGGGGGGUAACACUUUGGGAACAGGUGGUCCCAGGUAAAUUCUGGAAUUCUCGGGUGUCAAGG` has a log2 enrichment of -1.23.
With `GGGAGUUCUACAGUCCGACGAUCAGUCCUGUGCUACACAUCGUAUGUACCGAAUCGGGGAAAAAGGGGAGGGGAAAGGGGAAAGUAUUAUGUUACGCCGUUCGGAUCUGCACUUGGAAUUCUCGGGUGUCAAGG` the log2 enrichment was 1.82.
With `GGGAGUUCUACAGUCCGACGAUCUCCUCAAGUCCUGUGCUACACAUCGUAUGUACCGAAUCGGUGGUUUGGUGGAAAGUAUUAUGUUACGCCGUUCGGAUCUGCACUUCCAGCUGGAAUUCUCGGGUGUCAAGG` the log2 enrichment was -0.852.
`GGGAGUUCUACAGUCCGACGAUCCCUGUGCUACACAUCGUAUGUACCGAAUCAAAUUUUUUUAAACCCCCAAAUUUUUUUAAAAAAGUAUUAUGUUACGCCGUUCGGAUCUGCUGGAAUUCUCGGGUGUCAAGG` has a log2 enrichment of -1.11.
The log2 enrichment of `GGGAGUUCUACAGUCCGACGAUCUAGCUUUAGAGGAGGAUCUGAUGGAUAUGGCAGUGGACGUGGAUUUGGGGAUGGCUAUAAUGGGUAUGGAGGAGGACCUGGAGGUGGCAAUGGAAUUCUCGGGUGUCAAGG` is reported as -1.18.
With `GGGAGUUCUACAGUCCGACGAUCAGUCCUGUGCUACACAUCGUAUGUACCGAAUCGGAAAAAAAGGAAAGGAAAAAAAGGAAAGUAUUAUGUUACGCCGUUCGGAUCUGCACUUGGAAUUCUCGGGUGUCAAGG` the log2 enrichment was -1.86.
`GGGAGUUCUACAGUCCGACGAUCCACAGACAACACGCAAAAACACAGACACAGAGGGAAGGGGUUGGGAUGGGGACAGGGUGCACAGCAGGGCGGGGUAGGACCCCAGCCCCUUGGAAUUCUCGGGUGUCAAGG` has a log2 enrichment of -0.116.

Other studies, line by line
`PhoQ, residues 284 288 289 292 302 303 AGGCYF` gave a fold induction of 23.9 (PhoP, residues 12 14 15 18 19 LYHSL (Escherichia coli, UniProt P23836); Sort-seq, refers to: YFP reporter; E. coli; PhoQ-PhoP variant library, together with: 10 µM Mg2+; relative to: high Mg2+ state, higher = stronger signaling).
